Published values pooled from the literature.
Values joined by “and” are separate records of one study, mostly repeats; a detail may differ. ± marks the error that the study gave. In brackets after ≈: the same amount, converted by molar mass.
UniProt P47211, sequence (whole entry, looked up): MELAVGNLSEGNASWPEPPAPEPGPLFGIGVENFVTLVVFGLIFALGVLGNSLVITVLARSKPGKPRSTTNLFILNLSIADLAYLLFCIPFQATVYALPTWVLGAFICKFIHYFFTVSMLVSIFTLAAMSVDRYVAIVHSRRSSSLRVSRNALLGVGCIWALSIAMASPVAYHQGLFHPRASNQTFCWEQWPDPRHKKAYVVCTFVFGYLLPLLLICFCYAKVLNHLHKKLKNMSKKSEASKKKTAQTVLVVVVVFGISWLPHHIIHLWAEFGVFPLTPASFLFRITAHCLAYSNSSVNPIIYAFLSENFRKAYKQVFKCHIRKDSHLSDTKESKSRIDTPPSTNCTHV

SMILES = C[C@H]1COCCN1c1nc(NCc2cccnc2C(F)(F)F)c2cccnc2n1; tested on = Brugia malayi; system = SCID mouse, peritoneal cavity; setting = dose not given, 6 weeks post-treatment, dosing x14d; measurement = maximum microfilaria count; value = 2600 microfilariae per mouse
SMILES = Cc1c([N+](=O)[O-])oc2ccc3ccccc3c12; tested on = Mycobacterium marinum; assay = REMA; system = ATCC BAA-535; measurement = MIC90; value = 0.0625 µg/mL (≈ 0.275 µM)
SMILES = CCCCC1(CCCC)CN(c2ccccc2)c2cc(SC)c(OCC(=O)N[C@@H](C(=O)NCC(=O)O)c3ccccc3)cc2S(=O)(=O)C1; assay = refers to: HDL cholesterol; system = human, serum; setting = 15 mg once daily, day 8; measurement = serum HDL-C; value = 44 mg/dL
SMILES = Cl.N=C(CC(O)c1cc2c(F)cc(F)cc2c2cc(C(F)(F)F)ccc12)Nc1ccc(F)c(F)c1 (stereo not shown); tested on = Plasmodium berghei; assay = Peters 4-day test; system = ANKA, mouse; setting = oral, 3 mg/kg; measurement = cure rate; value = 0%
SMILES = Cc1ccc(NNC(=O)c2nnc(CC34CC5CC(CC(C5)C3)C4)o2)cc1; tested on = Botryosphaeria dothidea; assay = fungal growth, inhibitor; setting = 50 µg/mL; measurement = inhibition; value = 100%
SMILES = COc1cc(CCC[P+](c2ccccc2)(c2ccccc2)c2ccccc2)c(OC)c2c1OCO2.[I-]; tested on = BT-549; assay = SRB; measurement = LC50; value = -4.45 log M
SMILES = CS(=O)(=O)CCCn1c(Cn2c(=O)n(CC(F)(F)F)c3ccncc32)cc2cc(Cl)ccc21; tested on = respiratory syncytial virus; assay = RT-qPCR; system = hospitalized infants 1-24 months, nasal swab; setting = oral, 6, 4.5 or 3 mg/kg daily, day 14, mid dose by age cohort; how to read = baseline: baseline; measurement = LS mean viral load change; value = -4.25 log10 copies/mL
SMILES = C/C(=C\C=C\[C@]1(C)[C@@H](O)CC[C@@]2(C)[C@H]1CC[C@H]1Cc3c([nH]c4cc5c(cc34)C3=CC(C)(C)OC(C)(C)[C@H]3C5)[C@@]12C)C(=O)O; tested on = Brugia malayi; system = adult female worms; setting = 10 µM, 144 h; measurement = motility; value = 6.9 ± 2%
SMILES = CC1=CC(=O)c2c(O)cccc2C1=O; tested on = Drosophila melanogaster; assay = fluorescence; setting = liquid food, 40 µg/mL, first instar larvae; how to read = baseline: solvent; measurement = fluorescein ingestion; value = -13.8%
SMILES = CC[C@H](C)[C@@H]1NC(=O)[C@@H]2CCCN2C(=O)[C@H](CC(C)C)NC(=O)[C@H](CC(C)C)NC(=O)CNC(=O)[C@@H](NC(=O)[C@@H](NC(=O)[C@H](CC(=O)O)NC(=O)CNC(=O)[C@@H](NC(=O)[C@H](C)NC(=O)CNC(=O)[C@H](CCCCN)NC(=O)[C@H](CC(C)C)NC(=O)[C@H](CC(C)C)NC(=O)[C@H](CCCCN)NC(=O)CNC(=O)[C@@H](NC(=O)[C@@H](N)CC(C)C)C(C)C)C(C)C)C(C)C)CSSC[C@@H](C(=O)O)NC1=O; assay = RNA-seq, refers to: Rps18-ps3 mRNA; system = mouse traumatic brain injury, frontal cortex and hippocampus; setting = dose not given; how to read = baseline: TBI plus compound vs TBI; measurement = log2 fold change; value = -1.73
SMILES = Cl.N/C(CC(O)c1cc2c(F)cc(F)cc2c2cc(C(F)(F)F)ccc12)=N\c1ccc(F)cc1 (stereo not shown); tested on = Plasmodium berghei; assay = Peters suppressive test; system = ANKA, infected mice; setting = oral, 4 x 10 mg/kg, day 4; how to read = baseline: untreated control; measurement = parasitemia reduction; value = 99.9%
SMILES = COc1c(CCC[P+](c2ccccc2)(c2ccccc2)c2ccccc2)cc2c(c1OC)OCO2.[I-]; tested on = Hs-578T; assay = SRB; measurement = LC50; value = > -4 log M
SMILES = Cn1cc(NC(=O)c2cc(NC(=O)CN=C(N)N)cn2C)cc1C(=O)NCCC(=N)N; tested on = Bacillus subtilis; assay = bacterial cytological profiling; system = ATCC 6633; setting = concentration not given; measurement = cell length; value = 3.07 µm and 3.19 µm and 3.01 µm
SMILES = CC[C@H](C)[C@H](NC(=O)[C@H](C)NC(=O)[C@H](CCCCN)NC(=O)[C@H](CC(C)C)NC(=O)[C@H](C)NC(=O)[C@@H](NC(=O)[C@H](Cc1c[nH]cn1)NC(=O)[C@H](CC(C)C)NC(=O)[C@@H](NC(=O)[C@@H](NC(=O)[C@H](CCCCN)NC(=O)[C@H](C)NC(=O)[C@H](C)NC(=O)[C@H](CO)NC(=O)[C@H](CCCCN)NC(=O)[C@H](Cc1ccccc1)NC(=O)[C@@H](NC(=O)[C@H](CCCCN)NC(=O)[C@H](CC(C)C)NC(=O)[C@H](Cc1ccccc1)NC(=O)[C@H](CO)NC(=O)[C@H](CCCCN)NC(=O)[C@H](Cc1c[nH]c2ccccc12)NC(=O)[C@H](CCCCN)NC(C)=O)[C@@H](C)O)[C@@H](C)O)C(C)C)[C@@H](C)O)C(=O)N[C@@H](CO)C(=O)N[C@@H](CO)C(N)=O; tested on = Klebsiella pneumoniae; system = ATCC 1705; measurement = MIC90; value = 16 µg/mL (≈ 5.45 µM)
SMILES = COC(=O)N[C@H](C(=O)N1CCC[C@H]1c1ncc(-c2ccc(-c3ccc(-c4cnc([C@@H]5CCCN5C(=O)[C@@H](NC(=O)OC)C(C)C)[nH]4)cc3)cc2)[nH]1)C(C)C; tested on = Hepatitis C virus; system = replicon cells; setting = 90% effect level, together with: NS5B palm site II inhibitor, ratio 2.5:1; measurement = combination index; value = 0.56
SMILES = O=c1c2ccccc2sn1-c1ccc(S(=O)(=O)N2CCCC2)cc1; tested on = HIV-1; assay = viral replication; setting = 3 µM; measurement = inhibition; value = > 50%
SMILES = CC(=O)N[C@H]1[C@@H](O[C@@H]2O[C@H](C[C@@H](O)[C@H]3O[C@@H](n4ccc(=O)[nH]c4=O)[C@H](O)[C@@H]3O)[C@H](O)[C@H](O)[C@H]2NC(=O)/C=C/CCCCCCCCCC(C)C)O[C@H](CO)[C@@H](O)[C@@H]1O; tested on = Bacillus subtilis; assay = microplate alamar blue; system = ATCC 6051; measurement = MIC90; value = 0.3 µg/mL (≈ 0.361 µM)
SMILES = COc1cc(Nc2ncc(F)c(Nc3ccc4c(n3)NC(=O)C(C)(C)O4)n2)cc(OC)c1OC; tested on = GALR1 (Homo sapiens, UniProt P47211); measurement = IC50; value = > 10 µM
SMILES = C[C@H]1CN(c2n[nH]c3nc(N[C@H]4CC[C@H](NS(=O)(=O)CCC(F)(F)F)CC4)ncc23)CCO1; tested on = Small ribosomal subunit protein uS3 (Homo sapiens, UniProt P23396); assay = Kinobeads competition, refers to: RPS3; setting = 0.032 µM, unit not given; how to read = baseline: vehicle; measurement = remaining binding; value = 1.04

Repeated from above:
SMILES = Cc1c([N+](=O)[O-])oc2ccc3ccccc3c12; tested on = Mycobacterium marinum; assay = REMA; system = ATCC BAA-535; measurement = MIC90; value = 0.0625 µg/mL (≈ 0.275 µM)
SMILES = CCCCC1(CCCC)CN(c2ccccc2)c2cc(SC)c(OCC(=O)N[C@@H](C(=O)NCC(=O)O)c3ccccc3)cc2S(=O)(=O)C1; assay = refers to: HDL cholesterol; system = human, serum; setting = 15 mg once daily, day 8; measurement = serum HDL-C; value = 44 mg/dL
